Assay results collected from several papers.
Numbered parts are unrelated; each lists some results of a single study. Positions count from the first letter of the parent shown.

Set 1
Target: CCND3, cyclin fold, Cln2 fusion (human)
Technique: yeast growth competition, sequencing
Sample: yeast
Setting: weak parent motif
Relative to: not given
Reading: higher = stronger binding
Quantity: normalised enrichment score
Starting sequence: DOT1L docking peptide (human); SEAKRRIVFTITT
SEAKRRIVFAITT [T10A]: 0.0955
SEAARRIVFTITT [K4A]: 0.362
SEAKARIVFTITT [R5A]: 0.304
SAAKRRIVFTITT [E2A]: 0.271
SEAKRAIVFTITT [R6A]: -0.0281
AEAKRRIVFTITT [S1A]: 0.526

Set 2
Target: Interferon regulatory factor 7, full length, phosphomimetic (IRF7, Homo sapiens, UniProt Q92985, residues 1-503, S471D/S472D/S475D/S476D/S477D/S483D/S484D/S487D)
Technique: protein-binding microarray
Molecule type: double-stranded DNA, one strand shown
Sample: in vitro
Concentration: 2200 nM top
Setting: 60-bp whole probe
Added: salmon DNA 0.4 mg/ml
Relative to: random background probes
Reading: higher = stronger binding
Quantity: fitted relative affinity
Constant ends, left off below: GCCTAGCAC … GTCTTGATTCGCTTGACGCTGCTG
Target sequence (chain): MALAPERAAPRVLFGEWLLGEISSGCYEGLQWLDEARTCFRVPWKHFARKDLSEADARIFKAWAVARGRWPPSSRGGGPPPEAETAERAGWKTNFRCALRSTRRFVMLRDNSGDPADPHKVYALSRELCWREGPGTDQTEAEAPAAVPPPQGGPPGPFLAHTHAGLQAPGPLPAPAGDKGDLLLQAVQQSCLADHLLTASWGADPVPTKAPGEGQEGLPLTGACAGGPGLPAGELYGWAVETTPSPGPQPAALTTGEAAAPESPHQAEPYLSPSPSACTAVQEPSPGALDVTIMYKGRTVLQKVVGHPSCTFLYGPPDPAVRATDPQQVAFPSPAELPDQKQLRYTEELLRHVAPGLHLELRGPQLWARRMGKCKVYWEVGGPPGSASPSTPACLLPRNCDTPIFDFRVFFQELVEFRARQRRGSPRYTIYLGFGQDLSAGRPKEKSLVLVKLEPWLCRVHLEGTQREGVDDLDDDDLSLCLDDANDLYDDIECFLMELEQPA
GACGGTATCCATATCCTGACGTGCTAG: 0.946 z-score
GGCGAACTGGGGTTTCGAGACGTGCTA: 0.532 z-score
TGTTTTTGCTTTCTTTTTGCGTGCTAG: 8.49 z-score
TATTTTTTCTGAACCATTTTGTGCTAG: 1.59 z-score
TCACCTCTCAACCATCCTACTGTGCTA: 2.06 z-score
TTAGGACTGGGTAACGGTTAGTGCTAG: -0.721 z-score
GACGAACTGGGGTATCGGGACGTGCTA: -0.409 z-score
TCATAGTTGTGTCTTGCACTGTGCTAG: 1.01 z-score
ACATCCAAATCCACCATTCAGTGCTAG: 1.49 z-score
TTAGGTATCGGGTATCGCTTAGTGCTA: 0.659 z-score
GCTCCTCTTTTTTTGGTAATGTGCTAG: 1.64 z-score
GACGAACTGAGACTGGCGACGTGCTAG: -0.18 z-score
TTAGATTTCAGGTATCGATTAGTGCTA: 0.994 z-score
GACGGTTGCGGGTTTCGGGACGTGCTA: 2.09 z-score
TTAGGACTGCTTCTCCATTAGTGCTAG: 0.733 z-score
CATTTTCTCTGTTCTAGAAGGTGCTAG: 2.7 z-score
GGCGGTATCCTACTGCTGACGTGCTAG: -0.34 z-score
TCAGCTCTGTGCATAGGACTGTGCTAG: 0.227 z-score
TTAGGTTTCCTACTGCTCTAGTGCTAG: 1.34 z-score

Set 3
Target: PABPC1L2, full length, GST fusion (mouse, UniProt A0ABA7IW68)
Technique: RNAcompete
Molecule type: RNA
Sample: in vitro
Concentration: 20 nM
Setting: 7-mer, probes averaged, single round
Relative to: mean of 7-mers
Reading: higher = stronger binding
Quantity: 7-mer Z-score
Construct (chain): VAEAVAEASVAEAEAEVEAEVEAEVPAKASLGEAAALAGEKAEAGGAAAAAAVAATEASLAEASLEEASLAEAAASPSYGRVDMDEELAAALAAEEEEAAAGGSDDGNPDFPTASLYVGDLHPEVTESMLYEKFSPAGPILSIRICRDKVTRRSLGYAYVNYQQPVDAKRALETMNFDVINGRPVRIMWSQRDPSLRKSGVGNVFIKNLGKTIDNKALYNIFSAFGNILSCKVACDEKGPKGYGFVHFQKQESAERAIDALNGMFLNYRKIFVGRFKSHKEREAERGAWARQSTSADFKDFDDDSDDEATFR
UGAUCUG: -0.222
UUGCCGG: -0.206
AAACGCA: 0.573
ACAAUCA: 0.16
AUACAAG: 0.133
AAUUACA: 0.153
UUCCACA: -0.148
GUUACCA: -0.0373
GUGAGUU: -0.345
CUGUAUU: -0.309
CCGUCCU: -0.494
GUUAUAA: 0.0642
CCAUCGA: -0.162
UCCUCCG: -0.298
CAAGCAU: -0.137
CAUCGAG: -0.0754
CAGCGAU: 0.0442
AAAGACA: 1.6
AAAUGGG: 1.64
GGUUGUU: -0.42
UGCUUGG: -0.177
AGUCUAU: -0.333
GUCAAGC: -0.139
UGGCGCU: -0.161
GUCACGA: 0.0315

Set 4
Target: RNA binding protein fox-1 homolog 2, RRM domain, GST-SBP tag (RBFOX2, Homo sapiens, UniProt O43251-10, residues 100-194)
Technique: RNA Bind-n-Seq
Molecule type: RNA
Sample: in vitro
Concentration: 365 nM
Setting: natural RNA segment, single round, ends assumed
Relative to: no-protein control
Reading: higher = stronger binding
Quantity: RBNS enrichment (R)
Constant ends, left off below: GGGAGUUCUACAGUCCGACGAUC … UGGAAUUCUCGGGUGCCAA
Construct (chain): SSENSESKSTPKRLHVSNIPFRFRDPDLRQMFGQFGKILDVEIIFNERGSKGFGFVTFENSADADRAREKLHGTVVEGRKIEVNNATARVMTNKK
GGCCUUAGCAGAAGUGACUGACUUAAAGUGUUUUAGUUUCUUACUGAUGAGUGAAUUCAGUUCCCUACCAACUAAUGCGCAGAAUUGAAGAAUCCCAUCCUGCACACAUU: 0.802
UCUUUGCUAUAAAUGAUUCAGAAUUUUGUCAGAUUUUGUAGGUUGUAUCAUCGUAAGACGGAGUUGCAUAAGGAGAUCAUAAGCUGUGUGGCUAUUGCACUAACAAGCCU: 0.589
ACACUGAAAAAUCUAAGUGAUAUAAAUCAGAUUCUUCUCUCUCAAUUUUAUCCCUCACCUGUAGCAGCCAGUCCCGUUUCAUUUAGUCAUGUGACCACUCUGUCUUGUGU: 0.283
GCCAGCAUCCGUCCGUCCUCCACUCUCCAGCCUCUCCCCAGCCUCCUGCACUGAGCUGGCCUCACCAGUCGACUGAGGGAGCCCCUCAGCCCUGACCUUCUCCUGACCUG: 0.563
AAGUCCCCAGAGGGCUGCCCACGAUAGAAGCUGCCAAGCAGGGAGAACCUGUGCCAACUGUGGAGUGGGGAGGUUGGGCCUGGACCCUCAACCCCUGCAACCUUCCCUAG: 0.295
CUAAUAAUCCUUUAGUUACUCAGCUGCUCCAGGGCAAAGAUGUUCCCUUGGAGCAAAUUCUGCCUAAGCCUCUCACCAAAAUUGAAAUGAAAACAGUUCCACUGACUACA: 0.665
UGCUCUGCCAGUGUUCAGUAUCAGUGGCUGAAUUAUGGAUAAGAACUGUAGAGAAUCUUCUGUUUAGUCCGUGCUUUUUAUGUAGAAUUGGUUUUAUCUAAUAGUUUUAC: 0.279
UAGCCUGCAUGGACGAGAAUGGACCUGAUGGAUCUGGACAUGGAGUUGUCUCUGGGAAAGACCACACACUGGGAACUCCACUCAUGCUAGAUGUCCAGGCGGAUUUGGAG: 37.5
